Assay results gathered from unrelated publications.
Lines come from different studies, so protocols differ. Numbers after ± are the reported error.
Cell line: RAW264.7

Structure (SMILES) | test | conditions | IC50
Oc1ccc(/C=C/c2cc(O)cc(O)c2)cc1 | NO release, inhibitor | LPS-stimulated | 10 µg/mL
O=C(CSc1nnc(-c2ccc(NC(=O)c3cccnc3)cc2)o1)Nc1ccccc1Cl | IL-6 release, inhibitor, ELISA | LPS-stimulated | 7.76 µM
COC(=O)C1CCC(C(=O)CC(C)=O)C1=O (stereo not shown) | cell viability, CCK-8 | 48 h, together with: LPS 1 µg/mL | 1.61 ± 0.09 µM
CC(C)=CCc1c(O)cc(/C=C/c2ccccc2)cc1O | NO release, inhibitor | LPS-stimulated | 6.5 µg/mL
CN(Cc1cnc2nc(N)nc(N)c2n1)c1ccc(C(=O)N[C@@H](CCC(=O)O)C(=O)O)cc1 | cell viability, CCK-8 | 48 h, together with: LPS 1 µg/mL | 1.21 ± 0.13 µM
Oc1cccc(/C=C/c2ccccc2)c1 | NO release, inhibitor | LPS-stimulated | 11.4 µg/mL
CC(=O)CC(=O)C1CC(C)C(=O)C1=O (stereo not shown) | cell viability, CCK-8 | 48 h, together with: LPS 1 µg/mL | 1.02 ± 0.08 µM
COc1cc(OC)cc(-c2cc3ccccc3[nH]2)c1 | NO release, inhibitor, Griess | LPS-stimulated | 29.6 µM
Nn1c(SCC(=O)Nc2ccc([N+](=O)[O-])cc2)nnc1-c1ccc(NC(=O)c2cccnc2)cc1 | TNF-α release, inhibitor, ELISA | LPS-stimulated | 7.05 µM
COc1cccc(CCc2ccc(O)cc2)c1 | NO release, inhibitor | LPS-stimulated | 20 µg/mL
Nn1c(SCC(=O)Nc2ccccc2Cl)nnc1-c1ccc(NC(=O)c2cccnc2)cc1 | IL-6 release, inhibitor, ELISA | LPS-stimulated | 5.61 µM
Oc1ccc(/C=C/c2cccc(O)c2)cc1 | NO release, inhibitor | LPS-stimulated | 10.3 µg/mL
Nn1c(SCC(=O)Nc2ccc(F)cc2)nnc1-c1ccc(NC(=O)c2cccnc2)cc1 | IL-6 release, inhibitor, ELISA | LPS-stimulated | 1.66 µM
Nc1ccccc1C#Cc1cc(F)cc(F)c1 | NO release, inhibitor, Griess | LPS-stimulated | 4.6 µM
COc1cccc(/C=C/c2ccc(O)cc2)c1 | NO release, inhibitor | LPS-stimulated | 8 µg/mL
Cc1ccc(-c2cc(C(F)(F)F)nn2-c2ccc(S(N)(=O)=O)cc2)cc1 | IL-6 release, inhibitor, ELISA | LPS-stimulated | 13 µM
CC(C)/C=C/c1c(O)cc(/C=C/c2ccc(O)c(O)c2)cc1O | NO release, inhibitor | LPS-stimulated | 1.9 µg/mL
O=C(CCNNC(=O)c1ccncc1)NCc1ccccc1 | PGE2 release, inhibitor, ELISA | LPS-stimulated | > 200 µg/mL
Cc1ccc(C=Nn2c(-c3ccc(NC(=O)c4cccnc4)cc3)n[nH]c2=S)cc1 | NO release, inhibitor, Griess | LPS-stimulated | 47.2 µM
COc1ccc2c(c1)c(CC(=O)O)c(C)n2C(=O)c1ccc(Cl)cc1 | NO release, inhibitor, Griess | LPS-stimulated | 44.7 µM
c1ccc2[nH]c(-c3ccsc3)cc2c1 | NO release, inhibitor, Griess | LPS-stimulated | 20.4 µM
O=C(CSc1nnc(-c2ccc(NC(=O)c3cccnc3)cc2)o1)Nc1cccc(Br)c1 | reactive oxygen species, inhibitor, fluorescence | LPS-stimulated | 8.06 µM
CC(=O)CC(=O)C1CCCC1=O (stereo not shown) | cell viability, CCK-8 | 48 h, together with: LPS 1 µg/mL | 2.91 ± 0.24 µM
C#CCn1c(-c2ccccc2)cc2ccccc21 | NO release, inhibitor, Griess | LPS-stimulated | 44.3 µM
O=C(Nc1cc2ccccc2cc1C(=O)O)c1ccccc1 | cytotoxicity, MTT | together with: visible light, BSA | > 100 µM
Cc1ccc(NC(=O)CSc2nnc(-c3ccc(NC(=O)c4cccnc4)cc3)o2)cc1 | IL-6 release, inhibitor, ELISA | LPS-stimulated | 2.43 µM
COc1cccc(-c2cc3ccccc3[nH]2)c1 | NO release, inhibitor, Griess | LPS-stimulated | 49.7 µM
C=C1C(=O)O[C@H]2[C@H]1CC/C(C)=C/CC[C@@]1(C)O[C@@H]21 | NO release, inhibitor | LPS-stimulated | 0.42 µg/mL
